Experimental data of several laboratories.
Each line is one published result; not all experiments were run side by side. Values joined by “and” are separate records of one study, mostly repeats; a detail may differ. ± marks the error that the study gave.

Molecule	cell line	assay	conditions	EC50
CCCC(CCC)(C(=O)c1ccc(OCCN(C)C)cc1)c1ccccc1	type 2 Gaucher disease patient cells, L444P/L444P	lysosomal calcium release	added: GPN	4 to 4.4 µM
teriparatide	HEK-PR1	calcium signal, potentiator	added: carbachol	0.031 ± 0.01 µM
[Au(mba)(PPh3)]	BT-474	cell viability	72 h	3.51 ± 0.16 µM
O=C1C=C(NCc2ccccc2)C(=O)c2ccccc21	mitogen-stimulated human PBMC	cell proliferation, inhibitor, MTS		3.24 µM and 3.2 µM
CO[C@H]1C[C@@H]2CC[C@@H](C)[C@@](O)(O2)C(=O)C(=O)N2CCCC[C@H]2C(=O)O[C@H]([C@H](C)C[C@@H]2CC[C@@H](O)[C@H](OC)C2)CC(=O)[C@H](C)/C=C(\C)[C@@H](O)[C@@H](OC)C(=O)[C@H](C)C[C@H](C)/C=C/C=C/C=C/1C	neuroblastoma tumour-initiating cells	sphere formation	6 days, retreated on day 3, mean over lines	0.00011 µM
Cc1cc(Nc2ccc(NC(=O)c3ccc(Nc4cc(-c5ccccc5)nc5ccccc45)cc3)cc2)nc(N)n1	KG-1	cell proliferation	3 days, 15 % fetal calf serum	1.3 µM
Nc1nc(Cl)nc2c1ncn2[C@@H]1O[C@H](CO)[C@@H](O)[C@@H]1F	ENT2 knockout	cell viability, MTT	48 h, low affinity phase	1230 µM
C[C@]12CC[C@H]3C(=CC=C4C[C@@H](O)CC[C@@]43C)[C@@H]1CC[C@@H]2C(=O)CO	SK-MEL-188 pigmented melanoma	cell growth, inhibitor, MTT	48 h	0.118 µM
Nc1ccn([C@@H]2O[C@H](CO)[C@@H](O)C2(F)F)c(=O)n1	ENT2 knockout	cell viability, MTT	48 h, low affinity phase	2880 µM
COc1cc(F)c([C@@H]2CNC(=O)[C@H]2NC(=O)Nc2ccccc2)c(F)c1	differentiated HL-60 FPR1-deficient	chemotaxis, agonist	stimulatory phase bell curve	0.004 µM
CC[C@H](C)[C@H](NC(=O)[C@H](CCC(=O)O)NC(=O)[C@H](CC(=O)O)NC(=O)CNC(=O)[C@H](CC(C)C)NC(=O)[C@H](CCCNC(=N)N)NC(=O)[C@H](CCC(N)=O)NC(=O)[C@H](CC(C)C)NC(=O)[C@H](CO)NC(=O)[C@H](CCC(N)=O)NC(=O)[C@@H](NC(=O)[C@H](CC(C)C)NC(=O)[C@H](Cc1c[nH]c2ccccc12)NC(=O)[C@@H](NC(=O)[C@H](CCC(=O)O)NC(=O)[C@@H]1CCCN1C(=O)[C@H](CCCNC(=N)N)NC(C)=O)[C@@H](C)CC)[C@@H](C)O)C(=O)N[C@@H](CC(N)=O)C(=O)N[C@@H](C)C(=O)N[C@@H](Cc1ccc(O)cc1)C(=O)N[C@@H](Cc1ccc(O)cc1)C(=O)N[C@@H](C)C(=O)N[C@@H](CCCNC(=N)N)C(N)=O	Pfeiffer, permeabilized	mitochondrial depolarization, BH3 profiling, JC-1	3 h	> 100 µM
N=C(N)c1ccc(OCCCCCOc2ccc(C(=N)N)cc2)cc1	WM-115, scrambled shRNA	cell growth, SYBR Green	high S100B	11 ± 2 µM
CC[C@H](C)[C@H](NC(=O)[C@H](CCC(=O)O)NC(=O)[C@H](CC(=O)O)NC(=O)CNC(=O)[C@H](CC(C)C)NC(=O)[C@H](CCCNC(=N)N)NC(=O)[C@H](CCCNC(=N)N)NC(=O)[C@H](CC(C)C)NC(=O)CNC(=O)[C@H](CCC(N)=O)NC(=O)[C@@H](NC(=O)[C@H](CCSC)NC(=O)[C@H](Cc1c[nH]c2ccccc12)NC(=O)[C@@H](NC(=O)[C@H](CCC(=O)O)NC(=O)[C@@H]1CCCN1C(=O)[C@H](CCCNC(=N)N)NC(C)=O)[C@@H](C)CC)[C@@H](C)O)C(=O)N[C@@H](CC(N)=O)C(=O)N[C@@H](C)C(=O)N[C@@H](Cc1ccc(O)cc1)C(=O)N[C@@H](Cc1ccc(O)cc1)C(=O)N[C@@H](C)C(=O)N[C@@H](CCCNC(=N)N)C(N)=O	Bcl-2/Myc 2924, permeabilized	mitochondrial depolarization, BH3 profiling, JC-1	3 h	> 100 µM
CC(=O)OC1OC(OC(C)=O)[C@@H]2CCC=C[C@H]12 (some centres unmarked)	human T-lymphocyte	cell growth or viability, MTT	48 h	> 10 µM
